# Measured values of several laboratories.
# A part holds a random share of what one study measured. Changes are numbered by the printed parent chain.

# Sample 1 — method: RNAcompete; form: RNA; medium: in vitro; tested at: 20 nM; setting: 7-mer, probes averaged, single round; baseline: mean of 7-mers; direction: higher = stronger binding
# Target: PABPC1L2, full length, GST fusion (mouse, UniProt A0ABA7IW68)
# Residues (chain): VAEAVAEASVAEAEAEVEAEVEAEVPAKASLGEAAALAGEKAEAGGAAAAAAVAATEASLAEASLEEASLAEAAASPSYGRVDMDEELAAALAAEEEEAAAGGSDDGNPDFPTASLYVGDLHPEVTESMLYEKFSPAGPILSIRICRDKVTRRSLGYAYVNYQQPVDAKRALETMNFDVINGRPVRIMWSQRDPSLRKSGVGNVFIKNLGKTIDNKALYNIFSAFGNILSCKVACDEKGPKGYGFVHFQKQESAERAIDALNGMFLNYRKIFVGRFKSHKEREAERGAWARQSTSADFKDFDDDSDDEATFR
Oligonucleotide,7-mer Z-score
GUAGGGU,0.0587
GCAAGCA,-0.161
GUUCCAC,-0.273
AGGGUCA,0.287
ACUCCCC,-0.306
AUUGAAG,-0.00289
GGACACU,0.0497

# Sample 2 — method: RNA Bind-n-Seq; form: RNA; medium: in vitro; tested at: 200 nM; setting: whole 134-nt RNA, ends assumed; added: 150 mM LiCl; baseline: input library; direction: higher = stronger binding; each molecule: 7-deaza-guanosine replaces G
# Target: Fragile X messenger ribonucleoprotein 1, C-terminal low-complexity region (Fmr1, Mus musculus, UniProt P35922)
# Constant ends, left off below: GGGAGUUCUACAGUCCGACGAUC … UGGAAUUCUCGGGUGUCAAGG
Oligonucleotide,log2 enrichment
ACCAUGCAGGUGGGCAUCUUUGGGAAGUGGGGCACGGGGGGGAUAGGGAGGGGGGUAACACUUUGGGAACAGGUGGUCCCAGGUCGUUUC,1.14
AGUCCUGUGCUACACAUCGUAUGUACCGAAUCGGGUUUUUGGGAAAAAAAGGGAGGGAAAGUAUUAUGUUACGCCGUUCGGAUCUGCACU,-2.34
CCUCAAGUCCUGUGCUACACAUCGUAUGUACCGAAUCGGGCCGGCCGGCCGGAAAGUAUUAUGUUACGCCGUUCGGAUCUGCACUUCCAG,0.304
AGUCCUGUGCUACACAUCGUAUGUACCGAAUCGGGUUUUUUUGGGAAAGGGAAAGGGAAAGUAUUAUGUUACGCCGUUCGGAUCUGCACU,-1.62
CAAGUCCUGUGCUACACAUCGUAUGUACCGAAUCGGGGAAAGGGAAAGGGAAAGGAAAGUAUUAUGUUACGCCGUUCGGAUCUGCACUUC,-0.447
CCUGUGCUACACAUCGUAUGUACCGAAUCGGGGCCCCCCGGGGCCCCCCGGCCCCCCGGGGAAAGUAUUAUGUUACGCCGUUCGGAUCUG,-2.34
UAACUUUAGAGGAGGAUCUGAUGGAUAUGGCAGUGGACGUAGAUUUGGGGAUGGCUAUAAUGGGUAUGGAGGAGGACCUGGAGGUGGCAA,0.447
CAAGUCCUGUGCUACACAUCGUAUGUACCGAAUCGGGGAGGGGAAAGGGGUGGGGAAAGUAUUAUGUUACGCCGUUCGGAUCUGCACUUC,0.144

# Sample 3 — target: CCNA2, cyclin fold, Cln2 fusion (human); method: yeast growth competition, sequencing; medium: yeast; setting: strong parent motif; baseline: not given; direction: higher = stronger binding
# Parent: CDC6 docking peptide (human); TLKGRRLVFDNQL; partner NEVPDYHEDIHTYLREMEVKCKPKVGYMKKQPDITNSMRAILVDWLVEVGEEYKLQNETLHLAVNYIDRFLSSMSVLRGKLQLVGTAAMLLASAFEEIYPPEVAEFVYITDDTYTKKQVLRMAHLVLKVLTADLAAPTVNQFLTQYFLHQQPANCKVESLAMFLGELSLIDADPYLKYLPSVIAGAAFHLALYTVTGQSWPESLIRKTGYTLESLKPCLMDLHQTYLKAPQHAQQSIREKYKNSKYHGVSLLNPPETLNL
Substitution,normalised enrichment score
N11A,3.19
L7Y,1.77
G4T,1.23
R6V,0.84
Q12N,3.49
L7H,0.848
F9Q,0.753
L13A,3.59
D10Y,1.64
L7N,0.373
T1E,1.96

# Single results of other studies
Molecule,target,test,system,setting,how to read,endpoint,value
"PhoQ, residues 284 288 289 292 302 303 SVTLVV","PhoP, residues 12 14 15 18 19 YHFSH (Escherichia coli, UniProt P23836)","Sort-seq, item: YFP reporter",E. coli,"PhoQ-PhoP variant library, added: 10 µM Mg2+","baseline: high Mg2+ state, higher = stronger signaling",fold induction,5.3

# Some of these lines once more (sample 2):
Oligonucleotide,log2 enrichment
CAAGUCCUGUGCUACACAUCGUAUGUACCGAAUCGGGGAGGGGAAAGGGGUGGGGAAAGUAUUAUGUUACGCCGUUCGGAUCUGCACUUC,0.144
CAAGUCCUGUGCUACACAUCGUAUGUACCGAAUCGGGGAAAGGGAAAGGGAAAGGAAAGUAUUAUGUUACGCCGUUCGGAUCUGCACUUC,-0.447
AGUCCUGUGCUACACAUCGUAUGUACCGAAUCGGGUUUUUUUGGGAAAGGGAAAGGGAAAGUAUUAUGUUACGCCGUUCGGAUCUGCACU,-1.62
CCUCAAGUCCUGUGCUACACAUCGUAUGUACCGAAUCGGGCCGGCCGGCCGGAAAGUAUUAUGUUACGCCGUUCGGAUCUGCACUUCCAG,0.304
